Measured values gathered from unrelated publications.
Protocols differ between the studies behind these lines. Several values in a cell are separate wells, animals, samples, runs or records. ± marks the error that the study gave.
Abhd6: Monoacylglycerol lipase ABHD6 (Abhd6, Rattus norvegicus, UniProt Q5XI64)
CHRM2: Muscarinic acetylcholine receptor M2 (CHRM2, Homo sapiens, UniProt P08172)
qscR: qscR (Pseudomonas aeruginosa, UniProt G3XD77)

With `CCN(CC)CCCC[C@H](NC(=O)[C@H](CC(C)C)NC(=O)[C@H](C)NC(=O)[C@H](Cc1ccccc1)NC(=O)c1ccc(C(C)(C)C)cc1)C(=O)N[C@@H](CO)C(=O)OC` the specific binding was 112% (C-X-C chemokine receptor type 2 (CXCR2, Homo sapiens, UniProt P25025); radioligand binding; 10 µM).
For `COc1ccc(N2C(=O)N(c3c(C)cccc3Cl)Cc3cnc(Nc4ccc(C5CCN(C)CC5)cc4OC)nc32)nc1`, the inhibition was 4.33% (Casein kinase I isoform epsilon (CSNK1E, Homo sapiens, UniProt P49674); kinase activity, inhibitor; 0.5 µM, kinase CK1-EPSILON).
The inhibition of `O=C(Nc1cccnn1)N1CCC(=Cc2cccc(Oc3ccc(C(F)(F)F)cn3)c2)CC1` is reported as 5.1% (Abhd6; probe labelling, inhibitor, competitive ABPP with azido-FP probe, measured: ABHD6; rat brain soluble fraction; 0.1 µM).
`O=C1C2(Cl)C3(Cl)C4(Cl)C(Cl)(Cl)C5(Cl)C3(Cl)C1(Cl)C5(Cl)C24Cl` (centres unmarked) has a Hill slope of -2.84 (Thyroxine 5-deiodinase (DIO3, Homo sapiens, UniProt P55073, C168G); inhibitor; C168G variant).
`CN(C(=O)n1cnc(-c2ccc[n+]([O-])c2)c1)C1CCCCC1` has an inhibition of 97.5% (Abhd6; probe labelling, inhibitor, competitive ABPP; rat brain membrane fraction; 100 µM, with: azido-FP probe).
The inhibition of `COc1cc(Nc2ncc(F)c(Nc3ccc4c(n3)NC(=O)C(C)(C)O4)n2)cc(OC)c1OC` is reported as 81% (Serine/threonine-protein kinase tousled-like 1 (TLK1, Homo sapiens, UniProt Q9UKI8); KINOMEscan; 10 µM).
`O=c1c2ccccc2oc2cc(OCCCCc3ccccc3)ccc12` gave a reaction velocity of 0.0006 a.u. (Acetylcholinesterase (ache, Electrophorus electricus, UniProt O42275); enzyme activity; 0.73 µM, with: substrate 0.43 mM; higher = faster reaction).
`COC(=O)[C@@]1(O)C[C@H]2O[C@]1(C)n1c3ccccc3c3c4c(c5c6ccccc6n2c5c31)C(=O)NC4` gave a remaining activity of 108% (Mitogen-activated protein kinase 3 (MAPK3, Homo sapiens, UniProt P27361); ADP-Glo; 2.04 µM, with: substrate MBP).
With `C[C@H]1CN(c2n[nH]c3nc(N[C@H]4CC[C@H](NS(=O)(=O)CCC(F)(F)F)CC4)ncc23)CCO1` the remaining binding was 1.06 (Stomatin-like protein 2, mitochondrial (Homo sapiens, UniProt Q9UJZ1); Kinobeads competition, measured: STOML2; 0.032 µM, unit not given; reference: vehicle).
`CC[C@H](C)[C@H](NC(C)=O)C(=O)N[C@@H](CCC(=O)O)C(=O)N[C@H](C(=O)N[C@H](C=O)CC(=O)O)[C@@H](C)O` gave a Hill slope of -1.36 (Caspase-4 (CASP4, Homo sapiens, UniProt P49662)).
`[2H]c1c([2H])c([C@]2([2H])CCCN2C(=O)C(C)(C)Oc2ccc3cn[nH]c3c2)c([2H])c([2H])c1C([2H])([2H])[2H]` has a remaining binding of 55% (Casein kinase I isoform gamma-1 (CSNK1G1, Homo sapiens, UniProt Q9HCP0); KINOMEscan; 1 µM; reference: DMSO control).
For `COc1cc(CCNC(c2ccccc2O)C2CC2)c(OC)cc1C#N.Cl` (centres unmarked), the activity was about 28% (5-hydroxytryptamine receptor 2C (HTR2C, Homo sapiens, UniProt P28335); Gq dissociation, agonist, BRET; 10 µM; reference: 5-HT).
`O=C[C@H](O)COP(=O)(O)O` gave a kcat of 4100 ± 400 s⁻¹ (TPI1 (Saccharomyces cerevisiae, UniProt P00942, S211G); substrate, GPDH/NADH-coupled; pH 4.9, 25 °C).
`Nc1ncc(-c2nc(N3CCOCC3)nc(N3CCOCC3)n2)c(C(F)F)n1` gave a remaining binding of 75% (Epidermal growth factor receptor (EGFR, Homo sapiens, UniProt P00533, G719S); KINOMEscan; 10 µM).
The ED50 of `CN(C(=O)n1cnc(-c2ccc[n+]([O-])c2)c1)C1CCCCC1` is reported as 6.2 mg/kg (Fatty-acid amide hydrolase 1 (Faah, Mus musculus, UniProt O08914); enzyme activity, inhibitor, ex vivo; rat, liver; oral, 8 h).
`CN[C@@H]1C[C@H]2O[C@@](C)([C@@H]1OC)n1c3ccccc3c3c4c(c5c6ccccc6n2c5c31)C(=O)NC4` gave a remaining activity of 17.9% (CDC2-like kinase 1 (Trypanosoma brucei brucei, UniProt Q382U0); kinase activity, ADP-Glo; 0.625 µM).
`CN1CCN(c2cc(-c3ccncc3)c(-c3ccc4ccccc4c3)nn2)CC1` gave an activation of -0.6% (CHRM2; agonist, FLIPR; 12.5 µM).
The remaining activity of `CCOC(=O)CC(SP(=O)(OC)OC)C(=O)OCC` (centres unmarked) is reported as 2.29% (uncharacterized protein (Anopheles coluzzii, UniProt A0A6E8VQK1); enzyme activity, inhibitor; Sf9 cell homogenate; 34.4 µM, 0.1667 h, with: α-naphthyl acetate substrate; reference: no inhibitor).
`O=C(O)Cc1c[nH]cn1`: “normalised MST signal” 0.0615 (Sodium- and chloride-dependent taurine transporter (SLC6A6, Homo sapiens, UniProt P31641, Y138A); binding, microscale thermophoresis; 30.5 nM, room temperature, with: 50 nM labelled protein; higher = more binding).
`CC1=C(C(=O)O)N2C(=O)[C@@H](NC(=O)[C@H](N)c3ccccc3)[C@H]2SC1` gave a kinact/KI of 360 ± 210 M⁻¹ s⁻¹ (Penicillin-binding protein 2X (Streptococcus pneumoniae R6, UniProt P59676); inhibitor; Streptococcus pneumoniae).
For `O=C(O)c1ccc(CN2C(=O)CN(C(=O)c3ccco3)c3cc(-c4ccccc4)c(Oc4ccc(C(=O)O)cc4)cc32)cc1`, “soluble guanylate cyclase activity” read 542 ± 55.2 nmol cGMP/min/mg (GUCY1B1, with alpha-1 subunit (Homo sapiens, UniProt Q02153, H105A); concentration not given).
The ΔH of `CC[C@H](C)[C@@H]1NC(=O)[C@H](Cc2c[nH]c3ccccc23)NC(=O)[C@H](Cc2ccc(O)cc2)NC(=O)CSC[C@@H](C(N)=O)NC(=O)[C@H]([C@@H](C)O)NC(=O)[C@H](CO)NC(=O)[C@H](C(C)C)NC(=O)[C@H](Cc2ccc(O)cc2)NC(=O)[C@H](CCCNC(=N)N)NC(=O)[C@H](Cc2ccc(O)cc2)NC(=O)[C@H]([C@@H](C)O)NC(=O)[C@H]([C@@H](C)O)NC(=O)[C@H](Cc2c[nH]c3ccccc23)NC(=O)[C@H](CO)NC(=O)[C@H](CC(N)=O)NC(=O)[C@H](CO)NC1=O` is reported as -6.3 ± 2.5 kcal/mol (Vacuolar protein sorting-associated protein 26A/Vacuolar protein sorting-associated protein 35, Vps35 residues 1–172 (Homo sapiens, UniProt O75436+Q96QK1); ITC; 25 °C).
`O=C(c1ccc(Cl)cc1)N1CCN2C(=O)N(OC(=O)N3CCOc4ccccc43)C(=O)C2C1` (centres unmarked): “probe labelling ratio” 1.32 (Putative protein-lysine deacylase ABHD14B (Homo sapiens, UniProt Q96IU4); MS-based ABPP; SW-620 conditioned medium; 10 µM, 1 h, 37 °C, median protein ratio; reference: compound over DMSO).
With `CCCCCCCCCC(=O)CC(=O)N[C@H]1CCOC1=O` the K0.5 was 17 nM (qscR; ligand binding, FRET displacement; intact cells; apparent affinity).
`C=C(CN(C(=O)c1c(C(F)F)nn(C)c1F)C1CC1)c1ccc(Cl)cc1Cl` has a reaction velocity of 0.00368 µM/s and 0.00369 µM/s and 0.00361 µM/s (SDHD/SDHC/SDHB (Sus scrofa, UniProt A5GZW8+D0VWV4+Q007T0); enzyme activity, inhibitor, DCIP reduction; pig; 0.1 µM, with: DCIP 10 µM).
`CC(C)(C)C(=O)C1C(=O)c2ccccc2C1=O`: activity “inactive” (Oxysterols receptor LXR-alpha (NR1H3, Homo sapiens, UniProt Q13133); cells; concentration not given).
Under “active site volume change”, `CSc1scc2c1-c1nc(SCC(=O)C(C)(C)C)ncc1CC2` is recorded as about 17% (Dual specificity protein phosphatase 10, catalytic domain (Homo sapiens, UniProt Q9Y6W6); X-ray co-crystal structure; concentration not given; reference: apo MKP5).
With `CCN1CCN(C(=O)N[C@@H](C(=O)N[C@@H]2C(=O)N3[C@@H]2SC(C)(C)[C@@H]3C(=O)O)c2ccccc2)C(=O)C1=O` the kinact/KI was 880 ± 75 M⁻¹ s⁻¹ (Penicillin-binding protein 2a (pbp2a, Streptococcus pneumoniae, UniProt Q8DNB6); inhibitor).
`COc1cc(O)cc(/C=C/c2ccc(O)cc2)c1`: “-TΔS of binding” 0.37 kcal/mol (O-methyltransferase (Sorghum bicolor, UniProt A0A1B6PFV1); isothermal titration calorimetry; concentration not given, apo protein).
`O=C(CCCOc1ccc(Cl)cc1)NC1CCOC1=O` (centres unmarked) has a K0.5 of 46 nM (qscR; ligand binding, FRET displacement; intact cells; apparent affinity).
`COc1cc(N)c(Cl)cc1C(=O)NC1CN2CCC1CC2` (centres unmarked) — result for “log2 fold change”: 0.241 (2-oxoglutarate receptor 1 (OXGR1, Homo sapiens, UniProt Q96P68); β-arrestin recruitment, TANGO luminescence; concentration not given; reference: basal luminescence).
`C#CCCCCNC(=O)CI` gave a reactivity ratio of 1.59 (Cytoskeleton-associated protein 4 (Homo sapiens, UniProt Q07065); mass spectrometry profiling; Ramos cell lysate; 100 µM over 10 µM, UniProt Q07065; reference: high over low concentration).
`Cc1ncsc1-c1ccc(CNC(=O)[C@@H]2C[C@@H](O)CN2C(=O)[C@@H](NC(=O)COCCOCCOCCNC(=O)C[C@@H]2N=C(c3ccc(Cl)cc3)c3c(sc(C)c3C)-n3c(C)nnc32)C(C)(C)C)cc1` gave a cooperativity factor of 0.7 (VHL-ElonginB-ElonginC complex human; ternary complex formation, fluorescence polarization; with: SMARCA2 bromodomain).
`Clc1cc2c(cc1Cl)Oc1cc(Cl)c(Cl)cc1O2` has an EC80 of 1.43 ± 0.73 nM (Uncharacterized protein (Takifugu rubripes, UniProt Q4JHL5); reporter gene, agonist, dual-luciferase; COS-7; 24 h).
`Cc1cc(N2CCNCC2)nc2ccccc12` gave an Emax of under 10% (CHRM2; ERK1/2 phosphorylation, agonist; CHO cells).

A few entries again:
`Nc1ncc(-c2nc(N3CCOCC3)nc(N3CCOCC3)n2)c(C(F)F)n1` gave a remaining binding of 75% (Epidermal growth factor receptor (EGFR, Homo sapiens, UniProt P00533, G719S); KINOMEscan; 10 µM).
`O=C(CCCOc1ccc(Cl)cc1)NC1CCOC1=O` (centres unmarked) has a K0.5 of 46 nM (qscR; ligand binding, FRET displacement; intact cells; apparent affinity).
`C=C(CN(C(=O)c1c(C(F)F)nn(C)c1F)C1CC1)c1ccc(Cl)cc1Cl` has a reaction velocity of 0.00368 µM/s and 0.00369 µM/s and 0.00361 µM/s (SDHD/SDHC/SDHB (Sus scrofa, UniProt A5GZW8+D0VWV4+Q007T0); enzyme activity, inhibitor, DCIP reduction; pig; 0.1 µM, with: DCIP 10 µM).
The inhibition of `O=C(Nc1cccnn1)N1CCC(=Cc2cccc(Oc3ccc(C(F)(F)F)cn3)c2)CC1` is reported as 5.1% (Abhd6; probe labelling, inhibitor, competitive ABPP with azido-FP probe, measured: ABHD6; rat brain soluble fraction; 0.1 µM).
`COc1cc(O)cc(/C=C/c2ccc(O)cc2)c1`: “-TΔS of binding” 0.37 kcal/mol (O-methyltransferase (Sorghum bicolor, UniProt A0A1B6PFV1); isothermal titration calorimetry; concentration not given, apo protein).
For `O=C(O)c1ccc(CN2C(=O)CN(C(=O)c3ccco3)c3cc(-c4ccccc4)c(Oc4ccc(C(=O)O)cc4)cc32)cc1`, “soluble guanylate cyclase activity” read 542 ± 55.2 nmol cGMP/min/mg (GUCY1B1, with alpha-1 subunit (Homo sapiens, UniProt Q02153, H105A); concentration not given).
